Assay results gathered from unrelated publications.
Lines come from different studies, so protocols differ. Values joined by “and” are separate records of one study, mostly repeats; a detail may differ. ± gives the spread as reported.
Voltage-dependent P/Q-type calcium channel subunit alpha-1A: Voltage-dependent P/Q-type calcium channel subunit alpha-1A (Homo sapiens, UniProt O00555)
UCHL1: Ubiquitin carboxyl-terminal hydrolase isozyme L1 (UCHL1, Homo sapiens, UniProt P09936)

SMILES	target	assay	test system	setting	how to read	endpoint	value
Cc1ccccc1C1CC(=O)c2c(C)nc(N)nc2C1 (stereo not shown)	Leucine-rich repeat serine/threonine-protein kinase 2, WD40 domain (LRRK2, Homo sapiens, UniProt Q5S007)	binding, affinity selection mass spectrometry			reference: other proteins in batch	fold enrichment	1.82
Cc1ccc(CNC(=O)Cn2cc(CSc3nc4ccccc4[nH]3)nn2)cc1	DNA topoisomerase I (calf thymus)	enzyme activity, inhibitor	MDA-MB-231	50, 100, 500 ppm, 30 min, 37 °C		geometric mean inhibition	51.9%
CN(C)CCOC1=Cc2ccccc2Sc2ccc(Cl)cc21	Voltage-dependent P/Q-type calcium channel subunit alpha-1A	ion current, antagonist	HEK293	10 µM		inhibition	89%
Cc1ccc(OCC(=O)Nc2ccc3c(c2)C(=O)NC3=O)cc1	Glycogen synthase kinase-3 beta, with Nav1.6 (GSK3B, Homo sapiens, UniProt P49841)	protein complex assembly, split-luciferase complementation	HEK293 with Nav1.6 co-transfected	0.5 to 150 µM		maximal inhibition	4.7%
O=S(=O)(CC=C(Cl)Cl)N1CCSSCC1	UCHL1	covalent, intact protein LC-MS		12.5 µM		labelling	13.1%
Cc1ccnc([18F])c1-c1cccc(N2C[C@H](N3CCN(C(=O)c4nccs4)CC3)CC2=O)c1	Monoglyceride lipase (Macaca mulatta, UniProt H9ESL3)	PET Scatchard plot	rhesus monkey, brain OCC	baseline		Bmax	88.3 nmol/g
COc1cc2c(cc1OC)C(=O)C(CC1CCN(Cc3ccccc3)CC1)C2 (stereo not shown)	Voltage-dependent P/Q-type calcium channel subunit alpha-1A	ion current, antagonist, automated patch clamp				IC30	16.3 µM
N#CC(=Cc1csc(-c2ccsc2)n1)C(=O)NC1CC1	UCHL1	covalent, intact protein LC-MS		12.5 µM		labelling	23%
NCCCS(=O)(=O)O	SLC6A6 (Homo sapiens, UniProt P31641, Y138A)	binding, microscale thermophoresis		37.6 nM, fitted curve	higher = more binding	fraction bound	0.000341
Nc1ncnc2c1ncn2[C@@H]1O[C@H](COP(=O)(O)CP(=O)(O)OP(=O)(O)O)[C@@H](O)[C@H]1O	P2X purinoceptor 1 (P2RX1, Homo sapiens, UniProt P51575, R139P)	calcium influx		3.16 µM	reference: ionomycin response	calcium influx	94.7% and 98.7% and 95.9%
[O-][S+]1CCCCS1 (stereo not shown)	SOD1 (Homo sapiens, UniProt P00441, G94A)	intact protein LC-MS	SOD1 G93A transgenic mice, whole blood	intravenous, 10 mg/kg, 8 h		target engagement	51% and 48.4%
O=C(C1=C(O)C(=O)N(c2ccc(O)cc2)C1c1ccc([N+](=O)[O-])cc1)c1ccccc1 (stereo not shown)	ESR1/YWHAZ, with 14-3-3 zeta (Homo sapiens, UniProt P03372+P63104)	14-3-3ζ/ERα peptide binding, stabiliser, fluorescence polarization				EC1.2	87 µM
Nc1ncnc2c1ncn2[C@@H]1O[C@H](COP(=O)(O)OP(=O)(O)OP(=O)(O)O)[C@@H](O)[C@H]1O	P2X purinoceptor 1 (P2RX1, Homo sapiens, UniProt P51575, R139M)	ion current, agonist, two-electrode voltage clamp	Xenopus oocytes	concentration-response curve		Hill slope	1.39
C#CCCC1(CC[C@H](NC(=O)NCCCCCCNC(=O)NCCNC(=O)COc2cccc([C@@H](CCc3ccc(OC)c(OC)c3)OC(=O)[C@@H]3CCCCN3C(=O)C(=O)C(C)(C)CC)c2)C(N)=O)N=N1.O=C(O)C(F)(F)F	FKBP1A (Homo sapiens, UniProt P62942)	photoaffinity labeling, in-gel fluorescence, item: Alexa Fluor 647 click label		2 µM, UV irradiation 365 nm	reference: probe over FKBP12 signal, higher = more labeling	normalized labeling ratio	5.08
O=c1nc(SCc2cc(F)cc(C(F)(F)F)c2)nc(SCc2ccc3sccc3c2)[nH]1	TOP2B (Homo sapiens, UniProt Q02880)	decatenation		15.6 µM		mean decatenated DNA	0.88%
Cn1ncc(S(=O)(=O)NC2(c3ccc(Cl)cc3F)CCCCC2)c1C(=O)O	malate dehydrogenase	enzyme activity, inhibitor		200 µM, pH 7.0, 1% DMSO, aggregation counter-screen		remaining activity	93%
O=C(O)c1ccc([N+](=O)[O-])cc1	BEST1 (Homo sapiens, UniProt O76090)	whole-cell patch clamp	HEK293 transiently expressing channel	concentration not given, membrane potential 0 mV		current density	-0.05 pA/pF and -0.15 pA/pF and -0.08 pA/pF and 0 pA/pF and -0.65 pA/pF and 0.03 pA/pF
N#Cc1cnn(C(=O)N2CCN(Cc3ccc(OCc4ccccc4)cc3)CC2)c1	Faah (Rattus norvegicus, UniProt P97612)	inhibitor		5 nM, pH 9, 25 °C		time to maximal inhibition	1 h
CCCCC/C=C\C/C=C\CCCCCCCC(=O)O	uncharacterized protein (Marinitoga piezophila, UniProt H2J7C1)	substrate, GC-FID		pH 6.0, 20 °C, 5% ethanol, 50 mM NaCl		Km	17.4 ± 3.4 µM
CCOc1ccccc1NC(=O)C(C#N)=Cc1c(F)cccc1F	UCHL1	covalent, intact protein LC-MS		12.5 µM		labelling	18.3%
O=C(Nc1ccccc1Oc1nc2ccccc2n2cnnc12)c1cccs1	Catenin beta-1, residues 141-305 (CTNNB1, Homo sapiens, UniProt P35222)	ITC		25 °C		ΔH	-2.8 kcal/mol
CC[C@@H]1[C@H](F)C(=O)N[C@@H]1COc1nccc2cc(C(N)=O)c(OC)cc12	TLK2 (Homo sapiens, UniProt Q86UE8)	ATP-site probe binding, ActivX profiling	THP-1 cell lysate	0.04 mM, Lys2 site		inhibition	9.2%

SMILES	target	assay	test system	setting	how to read	endpoint	value
CC(C)(CC(=O)Nc1scc(C2CC2)c1C(=O)O)c1ccc(F)cc1	malate dehydrogenase	enzyme activity, inhibitor		200 µM, pH 7.0, 1% DMSO, aggregation counter-screen		remaining activity	76%
CC(=O)N[C@H]1[C@H](Oc2ccc([N+](=O)[O-])cc2)O[C@H](CO)[C@@H](O)[C@@H]1O	beta-N-acetylglucosaminidase, rabbit alveolar macrophage	substrate, p-nitrophenol release		pH 4.3, 37 °C, Sephadex G-200 purified		Km	1030 ± 100 µM
CC(=O)Oc1ccccc1C(=O)O	Voltage-dependent P/Q-type calcium channel subunit alpha-1A	ion current, antagonist, automated patch clamp				IC30	> 30 µM
O=S(=O)(Nc1c(Cl)ccc2c1OCO2)c1cc(Cl)cc(Cl)c1O	malate dehydrogenase	enzyme activity, inhibitor		200 µM, pH 7.0, 1% DMSO, aggregation counter-screen		remaining activity	99%
C=CC(=O)N1CCC(COCC(=O)N2CCN(c3nc(-c4cnc(N)nc4C(F)F)nc(N4CCOC[C@@H]4C)n3)CC2)CC1	MET (Homo sapiens, UniProt P08581, M1250T)	KINOMEscan		1 µM	reference: DMSO control	remaining binding	97%
c1coc(-c2n[nH]cc2-c2ccnc3ccccc23)c1	Serine/threonine-protein kinase BUR1 (CRK1, Candida albicans, UniProt Q9Y7W4)	kinase binding, MIB/MS competition	Candida albicans lysate	10 µM	reference: DMSO, negative = stronger binding	log2 fold change	-0.07
C=CC(=O)N1CCC[C@@H](n2nc(-c3ccc(Oc4ccccc4)cc3)c3c(N)ncnc32)C1	Tyrosine-protein kinase STYK1 (STYK1, Homo sapiens, UniProt Q6J9G0)			1 µM		remaining activity	163%
CN(C)CCCN1c2ccccc2Sc2ccc(Cl)cc21	Voltage-dependent P/Q-type calcium channel subunit alpha-1A	ion current, antagonist	HEK293	3 µM		inhibition	46%
Nc1nc2c(ncn2[C@@H]2O[C@H](COP(=O)(O)O)[C@@H](O)[C@H]2O)c(=O)[nH]1	GUK1 (Homo sapiens, UniProt Q16774, Y53A)	enzyme activity, NADH-coupled		1000 µM		reaction rate	6.08 s⁻¹ and 7.11 s⁻¹ and 6.49 s⁻¹
O=C(O)c1ccc(Nc2ncc3c(n2)-c2ccc(Cl)cc2C(c2c(F)cccc2F)=NC3)cc1	PKD2(h)	kinase activity		1 µM		remaining activity	90%
N[C@@H](CCC(=O)O)C(=O)O	glc-2 (Caenorhabditis elegans, UniProt Q17328, T283S)	two-electrode voltage clamp	Xenopus laevis oocytes			median current	1.1 µA
CCn1nnc(Br)c1CNS(=O)(=O)c1cccc(Cl)c1O	malate dehydrogenase	enzyme activity, inhibitor		200 µM, pH 7.0, 1% DMSO, aggregation counter-screen		remaining activity	112%
CCN1CCC[C@H]1CNC(=O)c1c(O)c(Cl)cc(Cl)c1OC	Probable G-protein coupled receptor 150 (GPR150, Homo sapiens, UniProt Q8NGU9)	β-arrestin recruitment, TANGO luminescence, item: GPR150		concentration not given	reference: basal luminescence	log2 fold change	0.161
Cc1cccc(Cc2cnc(NC(=O)CCl)s2)c1	UCHL1	covalent, intact protein LC-MS		12.5 µM		labelling	46.3%
CC(=O)N[C@@H](CC(C)C)C(=O)N[C@@H](CC(=O)O)C(=O)N1CCC[C@H]1C(=O)N1CCC[C@H]1C(=O)N[C@@H](CC(C)C)C(=O)N[C@@H](Cc1c[nH]cn1)C(=O)N[C@@H](CO)C(=O)N[C@H](C(=O)N[C@@H](C)C(N)=O)[C@@H](C)OP(=O)(O)O	PLK1 (Homo sapiens, UniProt P53350)	polo-box domain binding, isothermal titration calorimetry		concentration not given, 25 °C		binding stoichiometry	1.04
NC1CC1(F)c1ccc(Cl)cc1 (stereo not shown)	tyramine oxidase (Arthrobacter sp.)	substrate, Lineweaver-Burk plot				kcat	0.11 s⁻¹
O=C(CCl)Cc1ccc(F)cc1Cl	UCHL1	covalent, intact protein LC-MS		12.5 µM		labelling	31.6%
Cc1cc(-c2ccnc3[nH]cc(F)c23)cc(F)c1[C@@]1(O)[C@H](C)CN(C2CCS(=O)(=O)CC2)C[C@@H]1C	STK38L (Homo sapiens, UniProt Q9Y2H1)	ATP probe binding, KiNativ, item: Lys2 site	HEK293T cell lysate	1 µM		inhibition	10.6%
CCCCCCCC(=O)c1cc(OC)c(OC)c(OC)c1CC(=O)OCC	HNF4A (Homo sapiens, UniProt P41235)	reporter gene, Gal4 hybrid reporter		10 µM	reference: vehicle	activation	0.84 fold
CC#CC(=O)N1CCN(C(=O)C2(S(=O)(=O)c3ccc(Cl)cc3)CC2)CC1	UCHL1	covalent, intact protein LC-MS		12.5 µM		labelling	12.1%
C[C@H](CCC(C)(C)O)[C@H]1CC[C@H]2[C@@H]3CC=C4C[C@@](C)(O)CC[C@]4(C)[C@H]3CC[C@]12C	Glutamate NMDA receptor; GRIN1/GRIN2A (Homo sapiens, UniProt Q05586+Q12879)	ion current, positive modulator, automated patch clamp	HEK293 (tetracycline-inducible)	no 24(S)-HC, together with: glutamate 1 µM and glycine	reference: baseline current	Emax	264%

A few entries again:
SMILES	target	assay	test system	setting	how to read	endpoint	value
Cn1ncc(S(=O)(=O)NC2(c3ccc(Cl)cc3F)CCCCC2)c1C(=O)O	malate dehydrogenase	enzyme activity, inhibitor		200 µM, pH 7.0, 1% DMSO, aggregation counter-screen		remaining activity	93%
N#Cc1cnn(C(=O)N2CCN(Cc3ccc(OCc4ccccc4)cc3)CC2)c1	Faah (Rattus norvegicus, UniProt P97612)	inhibitor		5 nM, pH 9, 25 °C		time to maximal inhibition	1 h
O=S(=O)(CC=C(Cl)Cl)N1CCSSCC1	UCHL1	covalent, intact protein LC-MS		12.5 µM		labelling	13.1%
Cc1cc(-c2ccnc3[nH]cc(F)c23)cc(F)c1[C@@]1(O)[C@H](C)CN(C2CCS(=O)(=O)CC2)C[C@@H]1C	STK38L (Homo sapiens, UniProt Q9Y2H1)	ATP probe binding, KiNativ, item: Lys2 site	HEK293T cell lysate	1 µM		inhibition	10.6%
Nc1ncnc2c1ncn2[C@@H]1O[C@H](COP(=O)(O)CP(=O)(O)OP(=O)(O)O)[C@@H](O)[C@H]1O	P2X purinoceptor 1 (P2RX1, Homo sapiens, UniProt P51575, R139P)	calcium influx		3.16 µM	reference: ionomycin response	calcium influx	94.7% and 98.7% and 95.9%
Nc1nc2c(ncn2[C@@H]2O[C@H](COP(=O)(O)O)[C@@H](O)[C@H]2O)c(=O)[nH]1	GUK1 (Homo sapiens, UniProt Q16774, Y53A)	enzyme activity, NADH-coupled		1000 µM		reaction rate	6.08 s⁻¹ and 7.11 s⁻¹ and 6.49 s⁻¹
